# Measured values of several laboratories.
# Every numbered part comes from another study and shows a few of its results, in no order.

# Series 1 — technique: RNA Bind-n-Seq; form: RNA; medium: in vitro; concentration: 1 µM; setting: whole 134-nt RNA, ends assumed; added: 150 mM KCl; baseline: input library; reading: higher = stronger binding
# Target: Ras GTPase-activating protein-binding protein 1, RRM domain (G3BP1, Homo sapiens, UniProt Q13283)
# Chain of UniProt Q13283 (whole entry, looked up): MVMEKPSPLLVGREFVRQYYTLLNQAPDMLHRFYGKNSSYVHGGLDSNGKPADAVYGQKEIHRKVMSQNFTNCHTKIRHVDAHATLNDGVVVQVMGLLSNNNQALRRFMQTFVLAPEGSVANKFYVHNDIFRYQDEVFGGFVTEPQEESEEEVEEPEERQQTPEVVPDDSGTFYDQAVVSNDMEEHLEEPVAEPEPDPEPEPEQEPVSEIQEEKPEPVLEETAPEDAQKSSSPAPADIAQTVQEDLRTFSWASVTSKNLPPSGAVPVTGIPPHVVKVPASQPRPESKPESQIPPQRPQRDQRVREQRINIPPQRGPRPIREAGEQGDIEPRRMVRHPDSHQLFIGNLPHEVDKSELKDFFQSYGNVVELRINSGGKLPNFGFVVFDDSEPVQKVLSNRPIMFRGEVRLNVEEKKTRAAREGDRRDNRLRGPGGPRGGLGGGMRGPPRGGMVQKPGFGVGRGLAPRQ
# All sequences stand within: GGGAGUUCUACAGUCCGACGAUC … UGGAAUUCUCGGGUGUCAAGG
Strand,log2 enrichment
GCAGGAAGUAAAAACAAAUGGAAAUGCUUCGGAUAGUGGCAGGGGUGGGGGUUGCUAAGGAAAGGGUGGGAUGGUAGUGGGUAAAGAGUU,0.603
UACCAAUUGGCCUUUAUUGACUGUAUCCAAAGGAUUUUUUGAAGGCACCAUUGCCAGCAAAGGUAAGUACCUAUUUCUCCCAUAGCACUU,-0.215
CUGUGCUACACAUCGUAUGUACCGAAUCGGGCCCCCCCGGGGCCCCCCCGGCCCCCCCGGGAAAGUAUUAUGUUACGCCGUUCGGAUCUG,-0.533
GUCCUGUGCUACACAUCGUAUGUACCGAAUCGGAAAAAGGGGAAAAAGGAAAAAGGGGAAAGUAUUAUGUUACGCCGUUCGGAUCUGCAC,-0.0435
UGUUGGAGGGACGAUGGUCCGCUCCGGGCAGGACCCUUACGCCCGCAACAAGUUCAACCAGGUGGAGAGUGAUAAGCUUCGAAUGGACAG,-0.425
CUCAAGUCCUGUGCUACACAUCGUAUGUACCGAAUCGGGCCCGGCCCGGCCCGGAAAGUAUUAUGUUACGCCGUUCGGAUCUGCACUUCC,-0.896
CCUGUGCUACACAUCGUAUGUACCGAAUCGGUUUUUUUGGUUUUUUUGGGGUUUUUUUGGAAAGUAUUAUGUUACGCCGUUCGGAUCUGC,-0.344
UAACUUUAGAGGAGGAUCUGAUGGAUAUGGCAGUGGACGUGGAUUUGGGGAUGGCUAUAAUGGGUAUUGAGGAGGACCUGGAGGUGGCAA,-0.425

# Series 2 — technique: protein binding microarray; form: double-stranded DNA, one strand shown; medium: in vitro; concentration: not given; baseline: not given; reading: higher = stronger binding
# Target: Histone acetyltransferase KAT6A, both winged helices, GST fusion (KAT6A, Homo sapiens, UniProt Q92794, residues 1-181)
# Setting: 8-mer, flanks averaged, mean of 2 arrays, mostly near background
# Target sequence (chain): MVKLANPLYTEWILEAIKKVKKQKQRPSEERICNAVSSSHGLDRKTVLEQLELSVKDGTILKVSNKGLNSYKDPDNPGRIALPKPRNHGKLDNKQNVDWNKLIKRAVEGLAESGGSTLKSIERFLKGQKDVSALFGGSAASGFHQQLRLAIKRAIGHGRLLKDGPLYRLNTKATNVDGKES
Strand,E-score
AGCACCTC,-0.128
GGGCCTGA,-0.025
AAGGTGAA,-0.0594
CGCTGACA,0.1
ACAGCCGT,0.237
AGGCCAAT,-0.203
GTCCTCTA,-0.0408
AATTCAGC,-0.0265

# Series 3 — technique: competition protein-binding microarray; form: double-stranded DNA, one strand shown; medium: in vitro; concentration: 2 µM; added: Pho4 competitor, 0.05 µM; reading: higher = stronger binding; all sequences stand within: … GTCTTGATTCGCTTGACGCTGCTG
# Target: Centromere-binding protein 1, full length, His-tagged (CBF1, Saccharomyces cerevisiae, UniProt P17106, residues 1-351)
# Chain of UniProt P17106 (whole entry, looked up): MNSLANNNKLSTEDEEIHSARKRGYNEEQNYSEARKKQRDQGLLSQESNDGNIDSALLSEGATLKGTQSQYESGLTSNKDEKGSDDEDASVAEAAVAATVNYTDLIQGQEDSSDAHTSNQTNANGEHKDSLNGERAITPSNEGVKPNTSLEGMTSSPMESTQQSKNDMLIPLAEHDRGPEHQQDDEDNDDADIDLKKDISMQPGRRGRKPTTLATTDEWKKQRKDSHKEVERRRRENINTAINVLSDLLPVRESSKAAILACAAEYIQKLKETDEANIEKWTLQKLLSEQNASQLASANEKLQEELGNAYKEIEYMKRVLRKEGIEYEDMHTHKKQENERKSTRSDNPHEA
# Setting: whole 60-bp probe, lowest competitor level
Strand,fluorescence intensity
AAAGCGGTAATTTTTCACGTGTACTCACATATCTAT,1100 a.u.
AACCAGGGCAATTCATCCGTGACGGCGAATGTTTTG,80.2 a.u.
TGGCATCCCTCCCGACACGTGACCGCAGCGGGGACA,9150 a.u.
AAACCATGGGACTGTCACACTATCCTTTCCAAGCCC,76.5 a.u.
CGTCCTAGTGATTGTCACAGCACTTCCATGAGGAAG,91 a.u.
TCTACAGGAGTTCTGCATGTGCGTAATTCAAAGCCT,92.8 a.u.
CGGGGTTAAGTTTGATATGTGGGTGGCTTGCAGCAG,55.4 a.u.
GTCTTGTCTCATTTCCACGTGTTTTTCCCCACTTCA,634 a.u.

# Further values, each from its own experiment
SMILES,system,conditions,quantity,result
COc1cc(Cl)c(NC(=O)c2cc(S(=O)(=O)N3CCCCC3)c[nH]2)c(OC)c1,"mouse, microsomes or S9","2 µM, 0.5 h",remaining compound,1.92%
